Assay results pooled from the literature.
A part holds a random share of what one study measured.

Block 1
Target: RING finger protein unkempt homolog, zinc fingers 1-6, GST-SBP tag (UNK, Homo sapiens, UniProt Q9C0B0, residues 30-357)
Method: RNA Bind-n-Seq
Molecule type: RNA
Matrix: in vitro
Concentration: not given
Setting: RNA with constant flanks, human and mouse sites, ends assumed
Relative to: input RNA pool
Direction: higher = stronger binding
Construct (chain): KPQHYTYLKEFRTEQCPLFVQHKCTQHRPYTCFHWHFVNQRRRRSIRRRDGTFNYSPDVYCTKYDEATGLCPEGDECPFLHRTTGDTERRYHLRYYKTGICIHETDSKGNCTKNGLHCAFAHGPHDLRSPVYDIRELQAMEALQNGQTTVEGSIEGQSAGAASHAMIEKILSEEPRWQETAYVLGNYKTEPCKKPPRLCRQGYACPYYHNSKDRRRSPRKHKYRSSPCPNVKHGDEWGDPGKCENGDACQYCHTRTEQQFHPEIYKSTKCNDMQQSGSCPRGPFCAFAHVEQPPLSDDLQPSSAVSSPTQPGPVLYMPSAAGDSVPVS
Strand	bound/input enrichment [ratio]
GGGAGUUCUACAGUCCGACGAUCUUCCAGCGCAGCUCCUCCCUUGUUCAACACCAGCGAAUUCACACUGGAGAGAAACCCUAUCGAUGUAAUCUAUGUGGGAGGUCCUUUAGGCAUGGCACAUCCCUCACUCAACACGAGGUCCAACAGAGGAUUGAGCAUCA	0.152
GGGAGUUCUACAGUCCGACGAUCCUUCUUCGAAUAGAGAAAGAGGAAUUGGAUAUGAAAGGAAGUGGUUUCUAUGUUUCUCUGGAGUGGGUCACUAUCAGUAAGAAAAAUCAAGAUAAUAAAAAAUAUGAAAUUAUUAAGCGUCAACAGAGGAUUGAGCAUCA	2.53
GGGAGUUCUACAGUCCGACGAUCGCCGUGCACGUGGUGGUGAGCGCUGUCCGAGAGCUGAACCGCAGCCAGGAGAUCGGUGUGAAGCCUCUGGCCUGUACAUCGGCCAACAUUUGGCCCCACGGGACCAGCCUCAUGAACUACCAACAGAGGAUUGAGCAUCA	0.0516
GGGAGUUCUACAGUCCGACGAUCGGCUGCAGAGUCAUUCAGCGUAUCUUAGAGCACUGCACGGCAGAGCAGACCUUACCCAUCUUAGAAGAACUUCACCAACACACAGAACAGUUGGUACAGGAUCAGUAUGGCAAUUAUGUUCAACAGAGGAUUGAGCAUCA	0.926

Block 2
Target: Sal-like protein 4, full length isoform B (SALL4, Homo sapiens, UniProt Q9UJQ4-2, residues 1-616)
Method: universal PBM
Molecule type: double-stranded DNA, one strand shown
Matrix: in vitro
Concentration: not given
Setting: 8-mer, flanks averaged, mean of replicates
Direction: higher = stronger binding
Strand	E-score
CCAGACAC	-0.143
GGTAGTAA	0.0945
AAAAGTTC	0.264
AGACAACA	0.116

Single results of other studies
G3BP1 full length: Ras GTPase-activating protein-binding protein 1, full length (G3BP1, Homo sapiens, UniProt Q13283)
UniProt Q13283, sequence (whole entry, looked up): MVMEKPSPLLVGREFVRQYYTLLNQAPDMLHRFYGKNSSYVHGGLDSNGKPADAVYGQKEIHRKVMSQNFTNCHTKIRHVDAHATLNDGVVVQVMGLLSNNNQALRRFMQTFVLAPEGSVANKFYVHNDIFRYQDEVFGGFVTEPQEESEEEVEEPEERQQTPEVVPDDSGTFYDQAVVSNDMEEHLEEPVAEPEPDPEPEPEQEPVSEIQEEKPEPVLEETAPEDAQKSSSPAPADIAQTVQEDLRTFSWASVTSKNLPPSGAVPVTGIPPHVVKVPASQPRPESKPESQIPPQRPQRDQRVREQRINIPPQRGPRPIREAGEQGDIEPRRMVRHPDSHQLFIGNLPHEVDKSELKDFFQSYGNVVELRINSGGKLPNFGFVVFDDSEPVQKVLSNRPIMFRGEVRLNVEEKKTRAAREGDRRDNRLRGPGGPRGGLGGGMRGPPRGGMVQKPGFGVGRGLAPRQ
Molecule	target	assay	system	setting	how to read	measurement	value
GGGAGUUCUACAGUCCGACGAUCUGGGAGGUGGAUUUCGUUUAUUUUUUUAGCUCAUUUCCAGGGGUGGGAAUUUUUUUUUAAUAUGUGUCAUGAAUAAAGUUGUUUUUGAAAUGGAAUUCUCGGGUGUCAAGG (7-deaza-guanosine replaces G)	G3BP1 full length	RNA Bind-n-Seq	RNA, in vitro	200 nM, whole 134-nt RNA, ends assumed, added: 150 mM LiCl	relative to: input library, higher = stronger binding	log2 enrichment	0.0499
PhoQ, residues 284 288 289 292 302 303 SSTMSV	PhoP, residues 12 14 15 18 19 FWNTL (Escherichia coli, UniProt P23836)	Sort-seq, measured: YFP reporter	E. coli	PhoQ-PhoP variant library, added: 10 µM Mg2+	relative to: high Mg2+ state, higher = stronger signaling	fold induction	12.1
GGGAGUUCUACAGUCCGACGAUCACCAUGCAGGUGGGUAUCUUUGGGAAGUGGGGCAAGGGGGGGAUAGGGAGGGGGGUAACACUUUGGGAACAGGUGGUCCCAGGUCGUUUCUGGAAUUCUCGGGUGUCAAGG	Ras GTPase-activating protein-binding protein 1, RRM domain (G3BP1, Homo sapiens, UniProt Q13283)	RNA Bind-n-Seq	RNA, in vitro	1 µM, whole 134-nt RNA, ends assumed, added: 150 mM KCl	relative to: input library, higher = stronger binding	log2 enrichment	-0.498
GGGAGUUCUACAGUCCGACGAUCCAAGUCCUGUGCUACACAUCGUAUGUACCGAAUCGGUUUUUUUGGAGGAAAAAGGAAAGUAUUAUGUUACGCCGUUCGGAUCUGCACUUCUGGAAUUCUCGGGUGUCAAGG (7-deaza-guanosine replaces G)	G3BP1 full length	RNA Bind-n-Seq	RNA, in vitro	200 nM, whole 134-nt RNA, ends assumed, added: 150 mM LiCl	relative to: input library, higher = stronger binding	log2 enrichment	-0.671

Excerpt of the above (block 2):
Strand	E-score
GGTAGTAA	0.0945
